Assay results pooled from the literature.
A part holds a random share of what one study measured. Substitutions count along the parent as printed.

Block 1 — technique: universal PBM; molecule type: double-stranded DNA, one strand shown; medium: in vitro; concentration: not given; reading: higher = stronger binding
Target: Sal-like protein 4, full length isoform B (SALL4, Homo sapiens, UniProt Q9UJQ4-2, residues 1-616)
Notes: 8-mer, flanks averaged, mean of replicates
| Sequence | E-score |
| --- | --- |
| CCACTAGA | -0.0682 |
| ATTTAGAC | 0.222 |
| CGAACAAG | -0.163 |
| AATGTGTC | 0.0669 |
| GTTCTGAA | 0.0739 |
| ACAGTTTC | -0.0115 |
| CAGTGTCA | -0.0166 |
| ACATTTAC | 0.208 |
| AGGAGGCG | -0.244 |
| CCAAGGCC | -0.197 |
| CAATTGTG | 0.126 |
| CACTCTCA | 0.00152 |
| AACCCAGA | -0.0587 |
| CCCGGCAC | -0.353 |
| CAAAATTA | 0.343 |
| TAGCGGAA | -0.157 |

Block 2 — target: CCNF, cyclin fold, Cln2 fusion (human); technique: yeast growth competition, sequencing; medium: yeast; notes: strong parent motif; relative to: not given; reading: higher = stronger binding
Starting sequence: SLBP docking peptide (human); ARYKRKLLINDFG
| Substitution | normalised enrichment score |
| --- | --- |
| ARYKRKLLHNDFG [I9H] | 1.27 |
| ARYKRKLLINDFA [G13A] | 1.51 |
| ARYKRKLRINDFG [L8R] | 1.19 |
| ARYKRKLLFNDFG [I9F] | 6.69 |
| ARYKRKLLIFDFG [N10F] | 3.01 |

Block 3 — technique: protein binding microarray; molecule type: double-stranded DNA, one strand shown; medium: in vitro; concentration: not given; relative to: not given; reading: higher = stronger binding
Target: Histone acetyltransferase KAT6A, winged helix 2, GST fusion (KAT6A, Homo sapiens, UniProt Q92794, residues 85-181)
Notes: 8-mer, flanks averaged, mean of 2 arrays, mostly near background
Target sequence (chain): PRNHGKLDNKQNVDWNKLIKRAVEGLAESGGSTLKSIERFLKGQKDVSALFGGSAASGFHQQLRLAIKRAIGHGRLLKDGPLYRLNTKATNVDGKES
| Sequence | E-score |
| --- | --- |
| CATTTGAA | -0.133 |
| TATAAGAA | -0.185 |
| ACTAGGGA | -0.132 |
| CTGTCCAA | -0.0685 |
| CTCGACGC | 0.168 |
| GGTCTCGA | 0.0645 |
| GACTGCCC | -0.13 |
| CAAGTGAC | -0.0892 |
| TGGGGTAA | -0.0501 |
| CCTTGGTA | 0.0695 |
| ATGCTGAA | 0.0316 |

Mixed results
| Molecule | target | assay | system | setting | how to read | quantity | value |
| --- | --- | --- | --- | --- | --- | --- | --- |
| PhoQ, residues 284 288 289 292 302 303 QWGLFV | PhoP, residues 12 14 15 18 19 NQFFI (Escherichia coli, UniProt P23836) | Sort-seq, refers to: YFP reporter | E. coli | PhoQ-PhoP variant library, together with: 10 µM Mg2+ | relative to: high Mg2+ state, higher = stronger signaling | fold induction | 1.09 |
